{"data": "Measured values collected from several papers", "B1": "enzyme (Arabidopsis thaliana, UniProt Q9ZPI1); chain MEGAADQTTKALSELAMDSSTTLNAAESSAGDGAGPRSKNALKKEQKMKQKEEEKRRKDEEKAEKAKQAPKASSQKAVAADDEEMDATQYYENRLKYLAAEKAKGENPYPHKFAVSMSIPKYIETYGSLNNGDHVENAEESLAGRIMSKRSSSSKLFFYDLHGDDFKVQVMADASKSGLDEAEFLKLHSNAKRGDIVGVIGFPGKTKRGELSIFPRSFILLSHCLHMMPRKADNVNAKKPEIWVPGQTRNPEAYVLKDQESRYRQRHLDMILNVEVRQIFRTRAKIISYVRRFLDNKNFLEVETPMMNMIAGGAAARPFVTHHNDLDMRLYMRIAPELYLKQLIVGGLERVYEIGKQFRNEGIDLTHNPEFTTCEFYMAFADYNDLMEMTEVMLSGMVKELTGGYKIKYNANGYDKDPIEIDFTPPFRRIEMIGELEKVAKLNIPKDLASEEANKYLIDACARFDVKCPPPQTTARLLDKLVGEFLEPTCVNPTFIINQPEIMSPLAKWHRSKSGLTERFELFINKHELCNAYTELNDPVVQRQRFADQLKDRQSGDDEAMALDETFCNALEYGLAPTGGWGLGIDRLSMLLTDSLNIKEVLFFPAMRPPQEESAAAQAPLTEEKK", "B2": "bglA A17S (Acetivibrio thermocellus, UniProt P26208); chain MSKITFPKDFIWGSATSAYQIEGAYNEDGKGESIWDRFSHTPGNIADGHTGDVACDHYHRYEEDIKIMKEIGIKSYRFSISWPRIFPEGTGKLNQKGLDFYKRLTNLLLENGIMPAITLYHWDLPQKLQDKGGWKNRDTTDYFTEYSEVIFKNLGDIVPIWFTHNEPGVVSLLGHFLGIHAPGIKDLRTSLEVSHNLLLSHGKAVKLFREMNIDAQIGIALNLSYHYPASEKAEDIEAAELSFSLAGRWYLDPVLKGRYPENALKLYKKKGIELSFPEDDLKLISQPIDFIAFNNYSSEFIKYDPSSESGFSPANSILEKFEKTDMGWIIYPEGLYDLLMLLDRDYGKPNIVISENGAAFKDEIGSNGKIEDTKRIQYLKDYLTQAHRAIQDGVNLKAYYLWSLLDNFEWAYGYNKRFGIVHVNFDTLERKIKDSGYWYKEVIKNNGF", "B3": "enzyme A477T (Populus trichocarpa, UniProt A0A2K1ZZ60); chain ITRQYTFNITHKNFTRLCHTRSLVTVNGQFPGPRLVAREGDQVLVKVVNHVAENITIHWHGVRQLTSGWADGPAYVTQCPIQTGQAYTYNFTITGQRGTLLWHAHISWLRSSLYGPIIILPKLNESYPFKKPYKEIPILFGEWFNVDPEAVIAQALQTGAGPNVSDAYTINGLPGPLYNCSAKDTYKLKVKPGKTYLLRLINAALNDELFFSIANHTLTVVEADAVYVKPFEADTLLISPGQTTNVLLKTKPHLPNATFYMFAGPYFSGMGSFDNSTTAGVLVYKHPSSNNHLKKLPTLKPTLPPINATGFVANFTKKFRSLANAKFPANVPQTVDRKFFFTVGLGTNPCPKNTTCQGPNNNTKFAASINNVSFVLPSVALLQSYFFGQSNGVFTSDFPQNPTIPFNYTGTPPNNTMVSNGTKAVVLTFNTSVELVMQGTSIVTAESHPLHLHGFNFFVVGQGFGNYDPNKDPSNFNLVDPMERNTAGVPAGGWIAIRFLADNPGVWFMHCHLDVHTSWGLRMAWIVLDGPQPNQKIPPPPSDLPKC", "B4": "enzyme (Listeria innocua, UniProt Q927X3); chain MYFQKARLIHAELPLLAPFKTSYGELKSKDFYIIELINEEGIHGYGELEAFPLPDYTEETLSSAILIIKEQLLPLLAQRKIRKPEEIQELFSWIQGNEMAKAAVELAVWDAFAKMEKRSLAKMIGATKESIKVGVSIGLQQNVETLLQLVNQYVDQGYERVKLKIAPNKDIQFVEAVRKSFPKLSLMADANSAYNREDFLLLKELDQYDLEMIEQPFGTKDFVDHAWLQKQLKTRICLDENIRSVKDVEQAHSIGSCRAINLKLARVGGMSSALKIAEYCALNEILVWCGGMLEAGVGRAHNIALAARNEFVFPGDISASNRFFAEDIVTPAFELNQGRLKVPTNEGIGVTLDLKVLKKYTKSTEEILLNKGWS", "B5": "enzyme (Escherichia coli, UniProt P69937); chain MSWIILVIAGLLEVVWAVGLKYTHGFSRLTPSVITVTAMIVSMALLAWAMKSLPVGTAYAVWTGIGAVGAAITGIVLLGESANPMRLASLALIVLGIIGLKLSTH", "B6": "bglA A17S/S39T/T105V (Acetivibrio thermocellus, UniProt P26208); chain MSKITFPKDFIWGSATSAYQIEGAYNEDGKGESIWDRFTHTPGNIADGHTGDVACDHYHRYEEDIKIMKEIGIKSYRFSISWPRIFPEGTGKLNQKGLDFYKRLVNLLLENGIMPAITLYHWDLPQKLQDKGGWKNRDTTDYFTEYSEVIFKNLGDIVPIWFTHNEPGVVSLLGHFLGIHAPGIKDLRTSLEVSHNLLLSHGKAVKLFREMNIDAQIGIALNLSYHYPASEKAEDIEAAELSFSLAGRWYLDPVLKGRYPENALKLYKKKGIELSFPEDDLKLISQPIDFIAFNNYSSEFIKYDPSSESGFSPANSILEKFEKTDMGWIIYPEGLYDLLMLLDRDYGKPNIVISENGAAFKDEIGSNGKIEDTKRIQYLKDYLTQAHRAIQDGVNLKAYYLWSLLDNFEWAYGYNKRFGIVHVNFDTLERKIKDSGYWYKEVIKNNGF", "B7": "enzyme (Trypanosoma brucei, UniProt Q9GV41); chain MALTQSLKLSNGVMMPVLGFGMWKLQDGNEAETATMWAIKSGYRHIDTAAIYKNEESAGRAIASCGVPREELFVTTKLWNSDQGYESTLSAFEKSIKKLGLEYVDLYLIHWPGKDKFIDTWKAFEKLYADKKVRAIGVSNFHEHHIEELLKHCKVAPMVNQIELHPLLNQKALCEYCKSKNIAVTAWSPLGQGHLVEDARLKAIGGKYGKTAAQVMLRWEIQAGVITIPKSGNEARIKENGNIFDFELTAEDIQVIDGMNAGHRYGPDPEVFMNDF", "B8": "enzyme (Arabidopsis thaliana, UniProt Q944I4); chain SSYLSSKLSPIRTHSSFAACGCSWIQDNSMVHDYATTTNGTSKRCSALPTTNTVDVSSVSDLFEFICSGPLVNKIGITPQRVGQSIDKWLLYGSQLCRLFQLNELKLTIPQKARLYHYYIPVFIWCEDQIALHNSKFKDGDDVPPLVIGFSAPQGCGKTTLVFALDYLFKTTKKKSATISVDDFYLTAEGQAELRKKNPGNALLEYRGNAGSHDLKLSVETLEALSKLTKEGLKMKVPRYNKSAYSGRGDRADSSTWPEVEGPLSVILFEGWMLGFKPLPADVVKAVDPQLEVVNKNLEAYYDAWDKYIDAWVVIKIQDPSYVYRWRLQAEIAMRQDGQAGMSDEEVNDFVSRYLPAYKAYLPTLYAEGPSGSDPDRVLAIDIDEERNPILAN", "B9": "enzyme (Bacillus thuringiensis, UniProt P0CJ63); chain MTVKKLYFIPAGRCMLDHSSVNSALTPGKLLNLPVWCYLLETEEGPILVDTGMPESAVNNEGLFNGTFVEGQILPKMTEEDRIVNILKRVGYEPDDLLYIISSHLHFDHAGGNGAFTNTPIIVQRTEYEAALHREEYMKECILPHLNYKIIEGDYEVVPGVQLLYTPGHSPGHQSLFIETEQSGSVLLTIDASYTKENFEDEVPFAGFDPELALSSIKRLKEVVKKEKPIIFFGHDIEQEKSCRVFPEYI", "note": "Lines come from different studies, so protocols differ."}
{"Molecule": "nfsB K14Q (Escherichia coli)", "target or system": "NC(=O)N/N=C/c1ccc([N+](=O)[O-])o1", "test": "steady-state kinetics", "setting": "pH 7, 37 °C", "measurement": "Km", "result": "13 µM"}
{"Molecule": "pdc E473Q (Zymomonas mobilis)", "target or system": "CC(=O)C(=O)O", "test": "steady-state kinetics", "setting": "pH 6, 30 °C", "measurement": "Km", "result": "400 µM"}
{"Molecule": "fcl (Campylobacter jejuni, UniProt F2X7A6)", "target or system": "Nc1nc2c(ncn2[C@@H]2O[C@H](COP(=O)(O)OP(=O)(O)O[C@H]3O[C@@H](CCO)C(=O)[C@H](O)[C@@H]3O)[C@@H](O)[C@H]2O)c(=O)[nH]1", "test": "steady-state kinetics", "setting": "pH 7.5, 25 °C, apparent", "measurement": "Km", "result": "0.99 µM"}
{"Molecule": "B1 (enzyme)", "target or system": "Nc1ncnc2c1ncn2[C@@H]1O[C@H](COP(=O)(O)OP(=O)(O)OP(=O)(O)O)[C@@H](O)[C@H]1O", "test": "steady-state kinetics", "setting": "pH 7.8, 37 °C", "measurement": "Km", "result": "76.8 µM"}
{"Molecule": "insulin human", "test": "measured: NEGR1 mRNA", "test system": "uninfected mouse, brain", "setting": "i.p., dose not given", "scale": "reference: PBS", "measurement": "fold change", "result": 1.26}
{"Molecule": "enzyme (Nilaparvata lugens, UniProt B3GVW3)", "target or system": "COc1ccc([C@@H]2CC(=O)c3c(O)cc(O)cc3O2)cc1O", "test": "steady-state kinetics", "setting": "not purified", "measurement": "Km", "result": "84.7 µM"}
{"Molecule": "TDP2 (Homo sapiens, UniProt O95551)", "target or system": "Cc1cn([C@H]2C[C@H](O)[C@@H](COP(=O)(O)Oc3ccc([N+](=O)[O-])cc3)O2)c(=O)[nH]c1=O", "test": "steady-state kinetics", "measurement": "Km", "result": "54000 µM"}
{"Molecule": "B2 (bglA A17S)", "target or system": "O=[N+]([O-])c1ccc(O[C@@H]2O[C@H](CO)[C@@H](O)[C@H](O)[C@H]2O)cc1", "test": "steady-state kinetics", "setting": "pH 5.5, 60 °C", "measurement": "Km", "result": "3040 µM"}
{"Molecule": "rCR L34A (Lodderomyces parapsilosis)", "target or system": "CC(=O)c1ccc(Cl)cc1", "test": "steady-state kinetics", "setting": "pH 7, 30 °C, added: NADH 0.5 mM", "measurement": "Km", "result": "360 µM"}
{"Molecule": "B3 (enzyme A477T)", "target or system": "COc1cc(/C=C/CO)ccc1O", "test": "steady-state kinetics", "setting": "27 °C", "measurement": "Km", "result": "237 µM"}
{"Molecule": "enzyme (Plasmodium vivax, UniProt A5K9W3)", "target or system": "N=C(N)NCCC[C@H](N)C(=O)O", "test": "steady-state kinetics", "setting": "pH 7.4, not purified", "measurement": "Km", "result": "1.5 µM"}
{"Molecule": "enzyme (Bacillus subtilis, UniProt O31616)", "target or system": "O=C(O)CNCP(=O)(O)O", "test": "steady-state kinetics", "setting": "pH 8, 25 °C", "measurement": "Km", "result": "33900 µM"}
{"Molecule": "B4 (enzyme)", "target or system": "O=C(O)CCC(=O)C1=CC=C[C@@H](O)[C@@H]1C(=O)O", "test": "steady-state kinetics", "setting": "pH 8, 25 °C", "measurement": "Km", "result": "170 µM"}
{"Molecule": "enzyme (Aptenodytes forsteri, UniProt A0A087QWN2)", "target or system": "C[C@]12CCC(=O)C=C1CC[C@@H]1[C@@H]2CC[C@]2(C)C(=O)CC[C@@H]12", "test": "steady-state kinetics", "setting": "pH 7.4", "measurement": "Km", "result": "0.2 µM"}
{"Molecule": "B5 (enzyme)", "target or system": "N=C(N)NC(N)=O", "test": "steady-state kinetics", "setting": "pH 7.5", "measurement": "Km", "result": "850 µM"}
{"Molecule": "B6 (bglA A17S/S39T/T105V)", "target or system": "O=[N+]([O-])c1ccc(O[C@@H]2O[C@H](CO)[C@@H](O)[C@H](O)[C@H]2O)cc1", "test": "steady-state kinetics", "setting": "pH 5.5, 60 °C", "measurement": "Km", "result": "4610 µM"}
{"Molecule": "Cj1438c (Campylobacter jejuni, UniProt Q0P8H6)", "target or system": "N[C@@H](CO)COP(=O)(O)O", "test": "steady-state kinetics", "setting": "pH 8, 25 °C, apparent", "measurement": "Km", "result": "57 µM"}
{"Molecule": "ALS1 M174L/P171T/R172G (Oryza sativa)", "target or system": "CC(=O)C(=O)O", "test": "steady-state kinetics", "setting": "pH 7.5, 37 °C, added: FAD, MgCl2, TPP", "measurement": "Km", "result": "18000 µM"}
{"Molecule": "PDE (Schistosoma mansoni, UniProt C4QCZ2)", "target or system": "Nc1ncnc2c1ncn2[C@@H]1O[C@H](COP(=O)(O)OP(=O)(O)O)[C@@H](O)[C@H]1O", "test": "steady-state kinetics", "setting": "pH 9", "measurement": "Km", "result": "246 µM"}
{"Molecule": "dxs (Pseudomonas aeruginosa, UniProt Q9KGU7)", "target or system": "CC(=O)C(=O)O", "test": "steady-state kinetics", "setting": "pH 8, 25 °C, apparent", "measurement": "Km", "result": "66 µM"}
{"Molecule": "B7 (enzyme)", "target or system": "[H][C@]12C[C@]([H])(OO1)[C@H](C/C=C\\CCCC(=O)O)[C@H]2/C=C/[C@@H](O)CCCCC", "test": "steady-state kinetics", "setting": "pH 7, 37 °C", "measurement": "Km", "result": "1.3 µM"}
{"Molecule": "B8 (enzyme)", "target or system": "Nc1ncnc2c1ncn2[C@@H]1O[C@H](COP(=O)(O)OP(=O)(O)OP(=O)(O)O)[C@@H](O)[C@H]1O", "test": "steady-state kinetics", "setting": "pH 7.8, 30 °C", "measurement": "Km", "result": "470 µM"}
{"Molecule": "B9 (enzyme)", "target or system": "CCCC(=O)N[C@H]1CCSC1=O", "test": "steady-state kinetics", "setting": "pH 8, added: CoCl2 0.2 mM, DTNB 2 mM", "measurement": "Km", "result": "1830 µM"}
{"Molecule": "BGLU7 (Oryza sativa, UniProt Q75I93)", "target or system": "CC(C)(C#N)O[C@@H]1O[C@H](CO)[C@@H](O)[C@H](O)[C@H]1O", "test": "steady-state kinetics", "setting": "pH 6, 30 °C, not purified", "measurement": "Km", "result": "36000 µM"}
